# Assay results from different studies.
# Numbered parts are unrelated; each lists some results of a single study. Positions count from the first letter of the parent shown.

# Study 1
# Target: CCND1, cyclin fold, Cln2 fusion (human)
# Technique: yeast growth competition, sequencing
# Medium: yeast
# Setting: weak parent motif
# Relative to: not given
# Reading: higher = stronger binding
# Parent: MASTL docking peptide (human); PMIAKNLMCELDE; partner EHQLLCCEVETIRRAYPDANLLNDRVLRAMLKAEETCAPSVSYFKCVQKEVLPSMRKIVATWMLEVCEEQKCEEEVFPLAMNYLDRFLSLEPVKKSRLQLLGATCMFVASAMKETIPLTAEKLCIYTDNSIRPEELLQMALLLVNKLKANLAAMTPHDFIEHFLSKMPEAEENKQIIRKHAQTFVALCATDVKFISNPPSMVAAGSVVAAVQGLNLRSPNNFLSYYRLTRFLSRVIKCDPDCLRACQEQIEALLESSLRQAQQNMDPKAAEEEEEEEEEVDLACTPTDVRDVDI
Substitution,normalised enrichment score
D12N,-0.0925
C9T,0.0693
M8T,0.0841
L11H,0.342
L11I,0.106
C9R,0.261
A4E,-0.0205
C9A,0.227
C9V,-0.0193
M8N,-0.0685
C9L,0.215
I3W,-0.137
N6S,0.106
M8V,0.376
I3M,0.0716
N6E,0.00955
M8S,0.471
E10M,0.0556
K5F,0.625

# Study 2
# Target: Hepatocyte nuclear factor 3-alpha (Foxa1, Mus musculus, UniProt P35582, residues 1-468, full length assumed)
# Chain of UniProt P35582 (whole entry, looked up): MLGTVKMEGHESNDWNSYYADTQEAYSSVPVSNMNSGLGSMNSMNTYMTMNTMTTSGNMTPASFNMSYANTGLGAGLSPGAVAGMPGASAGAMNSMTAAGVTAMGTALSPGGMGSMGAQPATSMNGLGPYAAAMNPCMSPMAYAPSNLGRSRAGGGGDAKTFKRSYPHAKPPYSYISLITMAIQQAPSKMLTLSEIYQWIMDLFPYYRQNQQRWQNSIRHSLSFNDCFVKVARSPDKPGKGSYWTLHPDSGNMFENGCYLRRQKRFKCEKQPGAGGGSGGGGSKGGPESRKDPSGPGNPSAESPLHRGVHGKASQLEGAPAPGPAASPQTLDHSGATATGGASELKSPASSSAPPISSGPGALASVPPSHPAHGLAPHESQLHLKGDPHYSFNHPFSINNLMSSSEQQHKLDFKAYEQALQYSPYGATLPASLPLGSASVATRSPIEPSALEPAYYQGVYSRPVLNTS
# Technique: EMSA with sequencing
# Form: double-stranded DNA, one strand shown
# Medium: in vitro
# Concentration: 10 and 20 nM
# Setting: whole designed probe, mean of two concentrations, ends assumed
# Relative to: negative control set to 0
# Reading: higher = stronger binding
# Constant ends, left off below: GTGAGCGGTGCCCATTGATGGGGAAC … TTTCACTGGGATCGTGGGGAC
Strand,normalised bound fraction [ratio]
CATTAGAGTCAAAGTTGTTAAGGGGAGCTAGTCATAGCTACCACGTGGCCAGGCATGTGGAACCAGACACATGAATCATCACAGGCACACATCTATTTACTTTAAATAATGCTGACAACCTAGTTCATAGTGACACACTACTTGAGATATATAGAATAACATTATTACCCAGTAAGTATGTGAACATTCCGAT,0.39
CTCCAGGGTAGTTGTCCTTCCTGTGGCTGCTCACTGATCCAGGCTACTTTGATCTTGTGACTCAAAGTTCAACAAAATGTGGATGCGTCATTTTATTTACACTTCAATCTTACGAAATGGCCAGAAGGCCTCATCCAGTTGCAAGAAGTTTGGGAAATGTAGCCTTCCATATTTACAGGAATAAATGAAAAAC,0.293
GAAGGAAATAATGGAGCCAACCATGCATATAACCTCAGGGAGAACATTCTAGGTAGAGGGAACAGCAAGTGCAAAGGCCCTGAAGTGGGGGTTTGTTTACCTTGATGCACATTCTGCACACAGGCCAGTACAATTGGAATGGATGGGAAATGTAAAAGAGAGAAGTTGAAAAGGCCAGGTGCAGTGGCTCATG,0.403
TTGGTACAGAAAGCATACACCAGATGGTTAACAAAAACTAATTATTGATCAGCTTATGTTAGCTATGTAAGGACTATTCTTTCATAGTTATTTGTTTACTTTGGAATATTCAAATATACTCAAATATACACACAGTACTTTGAATATATACAGAGTACACAATTTCCATACATTAAAGCAGGGGTGTCCAACC,0.522
GACTTTTACACAGGCATCATGGGAGTAAGCCCAAGATATTTTCTCACACTTGATTCCAGGCATGTGGGGTTTGGTTTCTTGATCAAATATCTGAGATTGCTCTGTTTACAAGTATCTGATGAGCAAAACCAACAGAGGTGCTCCAGACAGGCTGGCTGTGCTGATCCCTTGGAAAAGAATTAAACAAAACCCA,0.17
AACAGATTAGCTGATCTCTAATGGCCCTAGGAGAAGATCTTGTATTGCTTCAAAATCTTTTCTGATTCTCATCACTCAACCTTCTTGGCTATGTAAACAAAGGAAGCTTTCCTTTTGTTTTCCAGACGTTTGGAAAACAAAATTTTCCAGAGCTGTGCATCTGCCAGGAAATGTTTCTTTTAACCTGATATCA,0.506
CAAGTTTGTGGTCCAGGAGCAACAGGTTATGCCATACAGCCTAGGTGTGTAGTAGGCTACACACCGTCTATGTTTGTGTTGTACACTCTACAATGTTTGCACAATGATGAAATCCCATGTCACATTTCTCAGAACATACCCCTGTTGTTAAGCGATACATGACTGTACTTTTTTTAAAAAGTCCAAGGATATA,0.477
ATTCTTGGGGGTGCGCTGATTCCAGGCTCTCGCCCCAGCTTTGGGCCCAGGGCAGTGAGCATGTGTAGTTACTTATCTAGGATTGCAACCTGAGTCAACAGTGAAACCAGGAAGTGAACTCGGGGTCCGGCATTGTATGGAAAGTTGGGTGTATTTACTTTTCTCTTAAAGCAAACTTTGATTGACTCTTTAA,0.472

# Study 3
# Target: RNA binding protein fox-1 homolog 2, RRM domain, GST-SBP tag (RBFOX2, Homo sapiens, UniProt O43251-10, residues 100-194)
# Technique: RNA Bind-n-Seq
# Form: RNA
# Medium: in vitro
# Concentration: 365 nM
# Setting: natural RNA segment, single round, ends assumed
# Relative to: no-protein control
# Reading: higher = stronger binding
# Constant ends, left off below: GGGAGUUCUACAGUCCGACGAUC … UGGAAUUCUCGGGUGCCAA
# Residues (chain): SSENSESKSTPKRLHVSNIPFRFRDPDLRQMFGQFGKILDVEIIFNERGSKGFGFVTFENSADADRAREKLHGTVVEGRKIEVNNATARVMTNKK
Strand,RBNS enrichment (R)
GGGAGGGGUCUCCUGCUGGGGUCCUGAUGCCUCUGUUUCCAAACAAGGUACAGGUUCAGUCCAGACUCUUUCCCCCUGGGACCAACAGCAGCCAGAGCAGUUAGCCAGUU,0.259
CUGGGUGAAUGAUCAGACCCUGGUAGCUAAGAAGGAACUUGUCCCUUUGAGUCAGUGUGCAGACCCCCUUUCAGGCCAUGCCUCUGUGAACCCUGUAUUGCUGGGGCCGG,1.97
UUAGGGUUGCUCAACCCAUAUUAUUGGCUGUACAUCCUGGUCACUUCUGACUUCUGUUUUUACUAAUGGAAGCUUUGCAAAUUGAAUUCUCAGUGAGUUGUAUAUUUAUA,0.31
AAAUUAAGAGUGUAAGCAGUUGUGAAUCAUUACAAGCAGUCUGGGAUAACUAACUCCUAGGGAUAACCAUUUCUAUCCUGUUCCAAAGUCUUAUUUUAUAGUUUGAAAAG,0.492
AAUGUAAGUCAGUCUCUUCUUUCAAAGGCAGAAGAUUAAACCCUACAGGUGGAUAGGGAUGCAGGGGCAGCCUUUCCCCGGGAAUCUGACUGGUCCGCACAACACACCCA,0.406
CCAGCUAAUUUCUGUAUUUUAGUAGAGACAAGGUUUCACCAUGUUGGCCAGGCUGGUCUCGAACUCCUGGCCUCAAGUGAUCCACCUGCCUUGGCCUCCCAAAGUGCUCC,0.319
ACCUAGCAUCUUCGGGAAGAAAUGAUUCCAGUCUAUUGGCUGAUACUACAUUAGUUUCCCUUUCUGAUUCUUAAUCUGUAGUUCUUUGUUAUAUUUCACAAAAAAAAAAA,0.678
UUUUCUUACAUACCCAUCUUUUAACUUAGAGAUAGCAUUUUUUGCCCUCUUUAUUUUGUUGUUUGUUUCUCCAGAGAGUAAACGCUUUGUAGUUCUUUCUUUAAAAAACA,0.397
GAUUCAAAGGGUAUACAGCAUUUUGUUUUCUAGUACCAUUGCUUCACUGGGAGCUCAAAAUUUGCCUCCCUGUUAGUCUUUAAUAACUGAGUAGAGUAGCUUUUUUAUUC,1.23
UGAUUUUAGAUAAAGUAAGCCUAGGUGUUGUCAGCAGGCAGGCUGGGGAGGCCAGUGUUGUGGGCUUCCUGCUGGGACUGAGAAGGCUCACGAAGGGCAUCCGCAAUGUU,1.21
CCCGGCUGGGAGUGACAGGGUGCUUCUUAGAUUCUAUUGGUCCUUCUCUCAUUCUCCGAACUUACUCCUUUUUAUGGGUAAGUCAACUAGGUUUACAGUCCCUUAUUUUU,0.448
GAUGAACGUCUUUCCUCUCCUGCCUCCCAUGAGACAGUCUCCUAGGAAUUCUUGGGGAAGUUUGGCUGGAAGCUUGCCAACUGUAAGUUGGAGAAACACACACCUGACAC,0.242

# Study 4
# Target: RING finger protein unkempt homolog, zinc fingers 1-6, GST-SBP tag (UNK, Homo sapiens, UniProt Q9C0B0, residues 30-357)
# Technique: RNA Bind-n-Seq
# Form: RNA
# Medium: in vitro
# Concentration: not given
# Setting: RNA with constant flanks, human-mouse chimeric sites, ends assumed
# Relative to: input RNA pool
# Reading: higher = stronger binding
# Constant ends, left off below: GGGAGUUCUACAGUCCGACGAUC … CAACAGAGGAUUGAGCAUCA
# Residues (chain): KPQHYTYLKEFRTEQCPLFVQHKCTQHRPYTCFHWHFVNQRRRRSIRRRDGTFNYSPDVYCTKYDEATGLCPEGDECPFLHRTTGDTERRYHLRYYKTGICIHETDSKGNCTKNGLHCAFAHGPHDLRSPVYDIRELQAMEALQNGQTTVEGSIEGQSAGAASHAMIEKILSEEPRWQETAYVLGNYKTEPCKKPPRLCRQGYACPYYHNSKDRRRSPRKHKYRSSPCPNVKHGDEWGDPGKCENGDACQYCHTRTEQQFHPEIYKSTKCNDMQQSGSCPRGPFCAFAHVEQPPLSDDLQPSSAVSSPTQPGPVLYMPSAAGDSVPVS
Strand,bound/input enrichment [ratio]
UCUGGUCAUACUCGUGCGUAUGGUGUUUGCUUUGUGGACACUUCACUGGGCAAGUUUUUCAUCGGCCAGUUUUCGGAUGAUCGCCAUUGUUCCAGAUUUAGGACGCUAGUGGCUCACUAU,0.214
CAACAGAGUCUAGGAUGGGUUCAUUACAUGAUUCAUGAGCCAGAACCACAUAUUCUUCUCUUUAGACGACCUCUUCCAAAAGAACAACAAAAAUGAAGUUUAUCUGGGAUCAUCUAAUCU,0.166
UAACCACAUCAAGAUGGUUGGGAAGCUGAAGCAGAACUUACUCUUGGCGUGUCUGGUGAUUAGUUCUGUGACUGUGUUUUACCUGGGCCAGCAUGCCAUGGAGUGCCAUCACCGAAUAGA,0.518
UCUUUAAAAAAAAAAUUACCUUUUCUGACAGUGCUUUCCCUCCCAUAGGUCCAGGUUCAAGCUCAAAGGCCAAAACUUUUGCACGGAGCUCAAACAUCUGAUGAAGAAAGAUUUCUGAGA,0.883
AAAGAAUGGAUAGAGUGUGCACACGGGAUCGGUGGGACCCGGGCGAAAAAGGAGUGCAAGAUAGAGUUCGAUGACUUCGAAGAGUGCUUGCUUCGGUACAAAACGAUGAGGCGAAUGCAU,0.567
GAAUCCUACUCAGGCGGAUUUUGCAACACCAAGCUCACAGCAGCAGCAUCUUAGUCACAGUUAGGUAGUUUUGGGGCUCUGUGGCCAGGGUUUUAUUCAUGUGCAGGUUUGGAAAAUGUA,2.37
GCUGAAAAUGAAGAAGAGGCAGCUGAUGUCUGGUACAACUUGGGACACAUAGCUGUGGGAAUCGGAGAUACAAACUUGGCCCACCAAUGCUUCAGGCUGGCCCUGGUCAACAACAACCAC,0.15
CCAAGUGAUUCAUCCCAAGGACAGGCCACCCCAUUUGAUGCCUGGACUGAUGACAGUAUGUUAGGGCCUAGUCAAAAUGUUGAAGCUGAGUCAAUUCAGGAUGCCAUGAGUAUGGAAGAG,0.35
UAAAUUAGGGCUGCCGUUUUCUGUUUCGCCCUGAGCUGCGGAAAGCCAGAAGAUUUUAUCUAGCUUAAACCAGGCUGCUGGUGUUCCCUCUUUUUUUCCACGAGGGUGUUUUUGGCUGCA,0.431
AUUCCGAUUAUGGACACCGGUGAAAACCCAGAGGUGCCCUUCCCCCGGGACAUGAUUGACUUAGAGGCCAAUUUUGAGAAGAUUGAAAAUGAACUGAAGGAAAUCAACACAAACCAGGAA,0.0762
GAUCAUGAACCACCAUCAGAAAUGAAGGAUGAGACUACCAGACGAGCCAAAACAGCUGCGCUACAGAAAAGUAAACUUAACCUUGCAGAGUUCCUUAAUGAAGAUACUAAGUUAGGAAGC,0.321
